# Assay results of several laboratories.
# Every numbered part comes from another study and shows a few of its results, in no order.

# Sample 1 — technique: protein-binding microarray; form: double-stranded DNA, one strand shown; matrix: in vitro; concentration: 2540 nM top; setting: 60-bp whole probe; with: salmon DNA 0.4 mg/ml; relative to: random background probes; reading: higher = stronger binding; shared flanks, not repeated: GCCTAGCAC … GTCTTGATTCGCTTGACGCTGCTG
# Target: Interferon regulatory factor 3, full length, phosphomimetic (IRF3, Homo sapiens, UniProt Q14653, residues 1-427, S386D/S396D/S398D/S402D/T404D/S405D)
# UniProt Q14653, sequence (whole entry, unmodified, looked up): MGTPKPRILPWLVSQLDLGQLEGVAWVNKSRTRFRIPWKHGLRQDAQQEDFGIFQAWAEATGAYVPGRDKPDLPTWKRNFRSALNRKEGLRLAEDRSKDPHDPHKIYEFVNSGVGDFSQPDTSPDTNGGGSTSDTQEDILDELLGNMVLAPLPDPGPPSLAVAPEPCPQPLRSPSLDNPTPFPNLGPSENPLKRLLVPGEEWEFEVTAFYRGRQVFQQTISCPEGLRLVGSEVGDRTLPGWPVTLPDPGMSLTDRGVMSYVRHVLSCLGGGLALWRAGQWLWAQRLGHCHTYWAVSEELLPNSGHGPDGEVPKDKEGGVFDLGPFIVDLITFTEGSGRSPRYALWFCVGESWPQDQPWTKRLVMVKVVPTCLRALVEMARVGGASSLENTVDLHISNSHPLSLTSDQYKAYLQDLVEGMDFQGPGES
Sequence,fitted relative affinity
TTAAGTTTCGGGACTGGGTTAGTGCTA,4.42 z-score
GGCGGTATCGGGTATCGGGACGTGCTA,1.74 z-score
TTGGGACTGGGGTATCGGTTAGTGCTA,-0.365 z-score
TTAGGACTGCCACTGCTTTAGTGCTAG,-0.958 z-score
GACGAACTGAGGTTTCGAGACGTGCTA,1.11 z-score
TTAGGTTTCCTTTCCGTTTAGTGCTAG,11.3 z-score
TTTTTTTTTTTTGTATTTTTGTGCTAG,1.81 z-score
GACGGTCTCGATATCGGGACGTGCTAG,0.954 z-score
GTGGCAGGCCCTCGGGCTCCGTGCTAG,-1.59 z-score
TTAGGTATCCTACTACTTTAGTGCTAG,3.15 z-score
TTAGATTTCGGGTATCGACTAGTGCTA,1.28 z-score
GACGATATCGGGTCTCGAGACGTGCTA,0.491 z-score
GACGGACTGGGGTATCGGAACGTGCTA,0.428 z-score
GACGGACTGCTTACCCTGACGTGCTAG,-0.39 z-score
TCATAACTCATTTTCGTACTGTGCTAG,1.58 z-score
TTAGGTTTCGGGACTGGGGTAGTGCTA,3.9 z-score
TTAGGTATCGACTTTCGTTTAGTGCTA,1.42 z-score
GACGGTTTCGGGTATCGGGATGTGCTA,4.69 z-score
TTAGGACTGGGTCTCGGTCAGTGCTAG,-0.778 z-score
TTAGGTATCCTTATTCTTTAGTGCTAG,4.91 z-score
GACTATATCGGGTATCGAGACGTGCTA,0.343 z-score
ACCTATAGGTTGTTTCTAATAGTGCTA,0.837 z-score
TTAGGGCTGGGTATCGGTTAGTGCTAG,0.169 z-score
TCAATTTTCATTATTGCACTGTGCTAG,1.7 z-score
TACGGTATCGACTTTCGGGACGTGCTA,1.26 z-score

# Sample 2 — technique: protein binding microarray; form: double-stranded DNA, one strand shown; matrix: in vitro; concentration: not given; relative to: not given; reading: higher = stronger binding
# Target: Histone acetyltransferase KAT6A, both winged helices, GST fusion (KAT6A, Homo sapiens, UniProt Q92794, residues 1-181)
# Setting: 8-mer, flanks averaged, mean of 2 arrays, mostly near background
# Residues (chain): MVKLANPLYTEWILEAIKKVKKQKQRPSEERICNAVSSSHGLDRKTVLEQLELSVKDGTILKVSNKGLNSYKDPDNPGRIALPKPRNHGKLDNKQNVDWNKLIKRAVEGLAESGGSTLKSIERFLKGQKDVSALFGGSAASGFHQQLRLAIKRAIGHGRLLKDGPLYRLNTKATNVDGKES
Sequence,E-score
AGGCAGGA,-0.27
ATCACACA,-0.261
AAACCTTA,-0.0286
CGCTTGAA,0.172
AATCGACT,-0.115
TACTTGGA,-0.0969
CCTGCTCC,0.0172
AGGTCGGA,0.0463
CGTCTGCA,0.0202
ATCGAACA,-0.0645
ATAGCAGG,-0.178
CCCGCACA,0.297
CAACGCAG,0.143
ACTCATGC,-0.0647
AAGAACGC,-0.019
CATGACGG,0.208
AACTCAAA,-0.172
AATGGTGC,-0.0928
ATTGATTA,-0.0176
ATGTAGGA,-0.192
ATCGATTG,-0.0829
CGGGCAGC,0.132
CAGGCGCA,0.133
TAGGCTAA,-0.0694
GCAATAAC,0.0351

# Sample 3 — technique: RNA Bind-n-Seq; form: RNA; matrix: in vitro; concentration: 200 nM; setting: whole 134-nt RNA, ends assumed; with: 150 mM KCl; relative to: input library; reading: higher = stronger binding
# Target: Fragile X messenger ribonucleoprotein 1, C-terminal low-complexity region (Fmr1, Mus musculus, UniProt P35922)
# Shared flanks, not repeated: GGGAGUUCUACAGUCCGACGAUC … UGGAAUUCUCGGGUGUCAAGG
Sequence,log2 enrichment
UGGACAGGUUGCUGGACCCCGCCAACAGAGCCCACCUGGGCCUGGAGGAGCAGCUGAGAGAGCUGCUGGACAUGCUCGACCUCACCUGCG,-1.33
UGGGAGGUGGAUUUUGUUUAUUUUUUUAGCUAAUUUCCAGGGGUGGGAAUUUUUUUUUAAUAUGUGUCAUGAAUAAAGUUGUUUUUGAAA,0.086
UCCUGUGCUACACAUCGUAUGUACCGAAUCGGGGUUUUUUGGGGUUUUUUGGUUUUUUGGAAAGUAUUAUGUUACGCCGUUCGGAUCUGC,0.116
CUGUGCUACACAUCGUAUGUACCGAAUCGGGCCCCCCCGGGCCCCCCCGGGGCCCCCCCGGGAAAGUAUUAUGUUACGCCGUUCGGAUCU,-1.19
GUCCUGUGCUACACAUCGUAUGUACCGAAUCGGGAAAGGGAAAAAAAGGGAAAAAGGGAAAGUAUUAUGUUACGCCGUUCGGAUCUGCAC,-0.409
CCUGUGCUACACAUCGUAUGUACCGAAUCGGCCCCCCCGGCCCCCCCGGCCCCCCCGGGGAAAGUAUUAUGUUACGCCGUUCGGAUCUGC,0.147
AAGUCCUGUGCUACACAUCGUAUGUACCGAAUCGGGUUUGGGUUUUUUUGGGAGGGAAAGUAUUAUGUUACGCCGUUCGGAUCUGCACUU,0.963
UAACUUUAGAGGAGGAUCUGAUGGAUAUGGCAGUGGACGUGGAUUUGGGGAUGGCUAUAAUGGGUAUGGAGGACGACCUGGAGGUGGCAA,0.386
UAACUUUAGAGGAGGAUCUGAUGGAUAUGGCAGUGGACGUGGAUUUGGGGAUGUCUAUAAUGGGUAUGGAGGAGGACCUGGAGGUGGCAA,0.329
GUCCUGUGCUACACAUCGUAUGUACCGAAUCGGAAAAAGGAAAAAGGGGAAAAAGGGGAAAGUAUUAUGUUACGCCGUUCGGAUCUGCAC,-0.107
AAGUCCUGUGCUACACAUCGUAUGUACCGAAUCGGGUUUUGGGGUUUUGGUUUUGGAAAGUAUUAUGUUACGCCGUUCGGAUCUGCACUU,-0.352
GGAGUGCCGUGAGCAGGCCGCGGGAACGUCGCCGUCACCUUGUCUCGGGGCCUCGGCGCUGCUUCCCGCCAAAACACGUUUACCGCGCGC,-1.65
UAACUUUAGAGGAGGAUAUGAUGGAUAUGGCAGUGGACGUGGAUUUGGGGAUGGCUAUAAUGGGUAUGGAGGAGGACCUGGAGGUGGCAA,0.498
CAAGUCCUGUGCUACACAUCGUAUGUACCGAAUCGGAAAAAAAGGAGGUUUUUGGAAAGUAUUAUGUUACGCCGUUCGGAUCUGCACUUC,-0.767

# Sample 4 — technique: RNA Bind-n-Seq; form: RNA; matrix: in vitro; concentration: 365 nM; relative to: no-protein control; reading: higher = stronger binding
# Target: RNA binding protein fox-1 homolog 2, RRM domain, GST-SBP tag (RBFOX2, Homo sapiens, UniProt O43251-10, residues 100-194)
# Setting: natural RNA segment, single round, ends assumed
# Shared flanks, not repeated: GGGAGUUCUACAGUCCGACGAUC … UGGAAUUCUCGGGUGCCAA
# Target sequence (chain): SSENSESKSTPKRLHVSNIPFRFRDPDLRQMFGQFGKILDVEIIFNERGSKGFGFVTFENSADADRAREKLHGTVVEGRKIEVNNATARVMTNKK
Sequence,RBNS enrichment (R)
CUUUUCUAAAUGUUCAGGAAAAGCAUUGCCAGUUCAGUCUUUUCAAAAUGAGGGAGAAACAUUUGCCUGCCUUGUAAUAACAAGACUCAGUGCUUAUUUUUUAAACUGCA,0.464
UAGGGGCCAGAGCACCUCUAGGCUGAUUCCUCACCUUUUGGGUCUGAGGGCAGCUGCUCUCCCAGCAUGUGCUGGCCACUCCAUCCCAAAAGCCCCCAUCAGAACUGCUG,1.38
CAUCUGAUAAGGGAAUCCCGUCUGCCCUGGGGCUGGAGAGAUGGGAGGGAGGUCUUAGGAUGUUGUAUGCUGUGCUGAGUGGGUGCCAGUUUGGCGUGAUGUCACGUGUG,1.55
AGAAUCAGUGAAAACAGCCUAACAAAACCUCUGACAUCAGUAUAUCAACUUUUAACAGCCCACUCACUGGCUUUUCUAAACUACCAAAAACCACCUGUAGGAUACUGCAU,0.41
UACAUGGAUGUCAGGAGAGCUGCUGCCCUCUUGGCGUGAGUUGCGUAUUCAGGCUGCUUUUGCUGCCUUUGGCCAGAGAGCUGGUUGAAGAUGUUUGUAAUCGUUUUCAG,0.174
AUCUUAAGCUUCUCUACUGAGGCAUUCUGAGUAGUGGCCAUCAGAGUCUCCUGCCUGCCCACAGAGCAGAGAACCAGUGCACGCUCUUAAGAGAAACUACUUGGCCAAAC,0.973
CCAGACAAGCUUCAUUCUGAUGCGCUAGUCCCUUGGUUUAAUUUGUGCCUUAUGCUUUCAUUGGACCAGCUGAAAUCACUGUAUUUAUUCAACUAGUGAUUUUUUUUUCU,0.562
GCACUUCUCACAAUGUAACUGCUUUAGUCAUAUUAACCUGAAGUUGCAGUUUAGACACAUGUUUUUGGGGUGUCUUUCUGGUGUCCAAACUUUUGAGGCACUUUUCAAAU,0.282
UUCUAUUUCCGGCUCCAGGUACCUGAACUUGCUAUGUUGCGUUUUGUGGUAAAGGAUUAUAGCAGGAAAUCCCGAAAUAACUUUAUUGGCCAAUACACCCUACCUUGGAC,0.521
CUGCACUUCCCUUGUGAUAUCAAAGUAUAACAAACGUGCUAAUUUUUCUUAAUAUCCCUCUAUAAUGCCAGAAAUUGGCAUAAAUGGUACAUUCACUAAAUUUAUCAAAU,0.409
GUUUCCCCAUCCAACUAUUAGUUUCAUACUUUGAAAACUUACUUUCAGAUUAUUCUCAAAGAACACAGUAGCACCUAAAUCUGUUUUCAAUUGGGCUUAAAAAUUGACAU,1.07
AGUGAAGUAUUUUCAUAGUGAUCUGUGCUCCACUUAAUGUUUCCCAGGGACCAUUAGUGUCUUUUUAAAAUUACAUUUUAUUUCACAUUUCAUAAUUCAGAAGUAAACCU,0.466

# A few entries again (sample 4):
Sequence,RBNS enrichment (R)
CAUCUGAUAAGGGAAUCCCGUCUGCCCUGGGGCUGGAGAGAUGGGAGGGAGGUCUUAGGAUGUUGUAUGCUGUGCUGAGUGGGUGCCAGUUUGGCGUGAUGUCACGUGUG,1.55
AGAAUCAGUGAAAACAGCCUAACAAAACCUCUGACAUCAGUAUAUCAACUUUUAACAGCCCACUCACUGGCUUUUCUAAACUACCAAAAACCACCUGUAGGAUACUGCAU,0.41
UACAUGGAUGUCAGGAGAGCUGCUGCCCUCUUGGCGUGAGUUGCGUAUUCAGGCUGCUUUUGCUGCCUUUGGCCAGAGAGCUGGUUGAAGAUGUUUGUAAUCGUUUUCAG,0.174
AUCUUAAGCUUCUCUACUGAGGCAUUCUGAGUAGUGGCCAUCAGAGUCUCCUGCCUGCCCACAGAGCAGAGAACCAGUGCACGCUCUUAAGAGAAACUACUUGGCCAAAC,0.973
CCAGACAAGCUUCAUUCUGAUGCGCUAGUCCCUUGGUUUAAUUUGUGCCUUAUGCUUUCAUUGGACCAGCUGAAAUCACUGUAUUUAUUCAACUAGUGAUUUUUUUUUCU,0.562
GCACUUCUCACAAUGUAACUGCUUUAGUCAUAUUAACCUGAAGUUGCAGUUUAGACACAUGUUUUUGGGGUGUCUUUCUGGUGUCCAAACUUUUGAGGCACUUUUCAAAU,0.282
UUCUAUUUCCGGCUCCAGGUACCUGAACUUGCUAUGUUGCGUUUUGUGGUAAAGGAUUAUAGCAGGAAAUCCCGAAAUAACUUUAUUGGCCAAUACACCCUACCUUGGAC,0.521
CUGCACUUCCCUUGUGAUAUCAAAGUAUAACAAACGUGCUAAUUUUUCUUAAUAUCCCUCUAUAAUGCCAGAAAUUGGCAUAAAUGGUACAUUCACUAAAUUUAUCAAAU,0.409
